Results gathered from unrelated publications.
Lines come from different studies, so protocols differ. Several values in a cell are separate wells, animals, samples, runs or records. Numbers after ± are the reported error.
Inward rectifier potassium channel 4: Inward rectifier potassium channel 4 (Homo sapiens, UniProt P48050)
Sequence of UniProt P48050 (whole entry, looked up): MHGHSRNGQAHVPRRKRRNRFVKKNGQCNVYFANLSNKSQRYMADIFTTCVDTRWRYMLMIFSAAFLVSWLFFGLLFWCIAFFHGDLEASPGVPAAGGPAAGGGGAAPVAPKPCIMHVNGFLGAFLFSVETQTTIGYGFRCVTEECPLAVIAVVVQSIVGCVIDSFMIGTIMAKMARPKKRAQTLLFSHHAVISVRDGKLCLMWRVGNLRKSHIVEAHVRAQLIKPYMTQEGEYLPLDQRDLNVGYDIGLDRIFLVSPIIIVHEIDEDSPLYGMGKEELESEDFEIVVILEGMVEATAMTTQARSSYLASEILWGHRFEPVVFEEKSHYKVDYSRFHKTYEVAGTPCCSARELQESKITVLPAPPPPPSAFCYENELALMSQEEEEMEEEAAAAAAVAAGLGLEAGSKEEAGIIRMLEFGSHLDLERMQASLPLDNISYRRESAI
Tubulin alpha-1B chain/TUBB2B: Tubulin alpha-1B chain/TUBB2B (Bos taurus, UniProt P81947+Q6B856)
Sequence of UniProt P81947 (whole entry, looked up): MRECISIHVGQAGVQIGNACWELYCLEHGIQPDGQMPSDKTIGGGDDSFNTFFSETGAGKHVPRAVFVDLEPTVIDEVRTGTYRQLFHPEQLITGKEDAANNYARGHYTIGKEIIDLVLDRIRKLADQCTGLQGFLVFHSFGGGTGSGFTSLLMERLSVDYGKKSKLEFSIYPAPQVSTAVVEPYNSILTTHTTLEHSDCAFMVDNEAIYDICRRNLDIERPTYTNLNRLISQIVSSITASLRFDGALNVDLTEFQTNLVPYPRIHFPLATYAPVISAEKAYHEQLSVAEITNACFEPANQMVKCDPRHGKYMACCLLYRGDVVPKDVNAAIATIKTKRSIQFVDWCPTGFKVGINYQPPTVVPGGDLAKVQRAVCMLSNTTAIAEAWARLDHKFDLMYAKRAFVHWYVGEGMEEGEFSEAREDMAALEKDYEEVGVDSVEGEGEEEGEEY
Sequence of UniProt Q6B856 (whole entry, looked up): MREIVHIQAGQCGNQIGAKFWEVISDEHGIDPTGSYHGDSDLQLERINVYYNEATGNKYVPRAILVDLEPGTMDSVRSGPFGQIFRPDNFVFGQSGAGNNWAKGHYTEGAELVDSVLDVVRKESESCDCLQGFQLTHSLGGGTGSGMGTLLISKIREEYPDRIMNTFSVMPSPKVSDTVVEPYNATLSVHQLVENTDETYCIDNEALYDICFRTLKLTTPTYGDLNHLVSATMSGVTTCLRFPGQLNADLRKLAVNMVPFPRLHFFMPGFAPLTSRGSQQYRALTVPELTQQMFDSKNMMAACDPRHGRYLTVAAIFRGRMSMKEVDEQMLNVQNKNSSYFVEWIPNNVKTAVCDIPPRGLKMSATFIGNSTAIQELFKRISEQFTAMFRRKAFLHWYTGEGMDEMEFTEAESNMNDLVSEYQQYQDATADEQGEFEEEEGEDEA
MAL12: Alpha-glucosidase MAL12 (MAL12, Saccharomyces cerevisiae S288c, UniProt P53341)
Sequence of UniProt P53341 (whole entry, looked up): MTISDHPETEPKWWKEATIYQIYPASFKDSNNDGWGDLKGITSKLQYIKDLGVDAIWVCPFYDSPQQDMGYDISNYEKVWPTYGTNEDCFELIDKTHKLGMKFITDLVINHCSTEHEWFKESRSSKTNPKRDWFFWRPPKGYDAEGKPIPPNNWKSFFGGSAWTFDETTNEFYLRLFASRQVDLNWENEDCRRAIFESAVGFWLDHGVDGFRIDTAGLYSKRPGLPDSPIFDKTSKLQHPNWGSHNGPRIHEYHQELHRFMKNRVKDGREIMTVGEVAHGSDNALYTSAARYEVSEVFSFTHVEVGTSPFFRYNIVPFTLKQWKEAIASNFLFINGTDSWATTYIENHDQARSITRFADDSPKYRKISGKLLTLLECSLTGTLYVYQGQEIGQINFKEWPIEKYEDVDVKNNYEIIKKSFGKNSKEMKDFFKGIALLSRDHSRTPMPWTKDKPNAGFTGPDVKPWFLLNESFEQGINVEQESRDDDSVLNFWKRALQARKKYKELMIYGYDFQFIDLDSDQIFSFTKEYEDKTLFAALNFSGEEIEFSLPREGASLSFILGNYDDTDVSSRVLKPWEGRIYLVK
SLCO1B1: Solute carrier organic anion transporter family member 1B1 (SLCO1B1, Homo sapiens, UniProt Q9Y6L6)
Sequence of UniProt Q9Y6L6 (whole entry, looked up): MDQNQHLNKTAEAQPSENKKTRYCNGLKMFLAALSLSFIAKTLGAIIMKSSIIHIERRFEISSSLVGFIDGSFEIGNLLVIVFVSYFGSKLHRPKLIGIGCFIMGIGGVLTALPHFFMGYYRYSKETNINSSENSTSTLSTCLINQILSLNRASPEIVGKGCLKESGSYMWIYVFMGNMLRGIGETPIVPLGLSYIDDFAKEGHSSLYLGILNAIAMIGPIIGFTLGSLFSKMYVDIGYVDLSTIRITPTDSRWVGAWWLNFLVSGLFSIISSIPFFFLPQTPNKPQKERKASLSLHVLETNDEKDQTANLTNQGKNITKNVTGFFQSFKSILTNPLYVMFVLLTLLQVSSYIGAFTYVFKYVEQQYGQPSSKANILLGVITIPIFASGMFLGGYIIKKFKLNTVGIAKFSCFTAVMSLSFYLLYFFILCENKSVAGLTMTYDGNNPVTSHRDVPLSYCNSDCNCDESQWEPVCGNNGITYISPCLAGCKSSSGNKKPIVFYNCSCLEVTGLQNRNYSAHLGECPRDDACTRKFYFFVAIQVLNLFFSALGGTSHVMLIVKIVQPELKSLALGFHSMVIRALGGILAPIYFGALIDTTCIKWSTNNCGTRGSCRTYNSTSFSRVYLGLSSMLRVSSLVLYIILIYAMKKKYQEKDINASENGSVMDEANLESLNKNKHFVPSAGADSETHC
Urease: Urease (Canavalia ensiformis, UniProt P07374)
Sequence of UniProt P07374 (whole entry, looked up): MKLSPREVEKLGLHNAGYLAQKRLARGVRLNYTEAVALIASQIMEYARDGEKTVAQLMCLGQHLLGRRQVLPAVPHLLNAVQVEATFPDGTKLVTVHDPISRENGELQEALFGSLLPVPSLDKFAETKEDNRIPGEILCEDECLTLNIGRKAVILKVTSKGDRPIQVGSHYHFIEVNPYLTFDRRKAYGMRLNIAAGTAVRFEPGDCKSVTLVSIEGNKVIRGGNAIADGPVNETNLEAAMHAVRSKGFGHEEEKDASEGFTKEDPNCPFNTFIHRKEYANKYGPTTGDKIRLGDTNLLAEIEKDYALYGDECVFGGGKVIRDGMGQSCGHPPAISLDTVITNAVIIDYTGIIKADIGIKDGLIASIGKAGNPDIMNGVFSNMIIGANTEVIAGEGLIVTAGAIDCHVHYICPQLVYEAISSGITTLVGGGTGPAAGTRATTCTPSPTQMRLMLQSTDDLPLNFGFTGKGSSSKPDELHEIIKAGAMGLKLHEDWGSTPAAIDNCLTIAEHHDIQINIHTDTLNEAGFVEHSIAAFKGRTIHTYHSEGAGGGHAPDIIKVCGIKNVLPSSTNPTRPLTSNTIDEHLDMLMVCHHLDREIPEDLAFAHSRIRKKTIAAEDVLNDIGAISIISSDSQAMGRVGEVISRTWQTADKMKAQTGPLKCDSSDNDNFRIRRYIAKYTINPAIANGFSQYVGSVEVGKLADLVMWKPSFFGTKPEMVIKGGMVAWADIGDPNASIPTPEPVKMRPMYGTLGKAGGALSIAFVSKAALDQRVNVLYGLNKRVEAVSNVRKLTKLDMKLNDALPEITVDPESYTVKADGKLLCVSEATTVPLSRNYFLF
Kir1 channel protein: Kir1 channel protein (Aedes aegypti, UniProt L0EQS9)
Sequence of UniProt P32418 (whole entry, looked up): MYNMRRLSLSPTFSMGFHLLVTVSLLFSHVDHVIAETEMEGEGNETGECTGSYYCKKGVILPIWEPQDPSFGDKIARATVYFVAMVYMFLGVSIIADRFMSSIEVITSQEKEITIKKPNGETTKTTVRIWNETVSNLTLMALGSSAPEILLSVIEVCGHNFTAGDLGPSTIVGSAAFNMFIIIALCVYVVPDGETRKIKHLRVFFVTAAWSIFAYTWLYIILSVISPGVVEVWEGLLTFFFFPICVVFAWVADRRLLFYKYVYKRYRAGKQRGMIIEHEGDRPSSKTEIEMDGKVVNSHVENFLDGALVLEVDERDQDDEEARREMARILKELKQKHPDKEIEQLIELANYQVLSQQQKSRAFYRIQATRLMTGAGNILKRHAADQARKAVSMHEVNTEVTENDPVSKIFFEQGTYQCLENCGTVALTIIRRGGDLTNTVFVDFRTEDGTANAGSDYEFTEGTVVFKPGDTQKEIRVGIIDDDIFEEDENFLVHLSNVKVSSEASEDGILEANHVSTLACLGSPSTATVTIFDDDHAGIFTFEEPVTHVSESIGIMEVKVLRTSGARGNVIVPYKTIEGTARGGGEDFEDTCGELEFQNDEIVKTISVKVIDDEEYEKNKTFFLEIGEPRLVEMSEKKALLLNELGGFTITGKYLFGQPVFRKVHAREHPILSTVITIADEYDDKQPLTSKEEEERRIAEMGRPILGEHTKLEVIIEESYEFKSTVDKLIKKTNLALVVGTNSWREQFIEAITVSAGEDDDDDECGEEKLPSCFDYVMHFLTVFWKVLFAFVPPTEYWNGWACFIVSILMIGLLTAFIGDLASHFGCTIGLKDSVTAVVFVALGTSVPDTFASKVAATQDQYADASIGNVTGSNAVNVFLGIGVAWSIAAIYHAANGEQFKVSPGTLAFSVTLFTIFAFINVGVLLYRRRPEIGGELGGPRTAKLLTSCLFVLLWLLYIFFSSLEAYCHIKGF
Sequence of UniProt P17706 (whole entry, looked up): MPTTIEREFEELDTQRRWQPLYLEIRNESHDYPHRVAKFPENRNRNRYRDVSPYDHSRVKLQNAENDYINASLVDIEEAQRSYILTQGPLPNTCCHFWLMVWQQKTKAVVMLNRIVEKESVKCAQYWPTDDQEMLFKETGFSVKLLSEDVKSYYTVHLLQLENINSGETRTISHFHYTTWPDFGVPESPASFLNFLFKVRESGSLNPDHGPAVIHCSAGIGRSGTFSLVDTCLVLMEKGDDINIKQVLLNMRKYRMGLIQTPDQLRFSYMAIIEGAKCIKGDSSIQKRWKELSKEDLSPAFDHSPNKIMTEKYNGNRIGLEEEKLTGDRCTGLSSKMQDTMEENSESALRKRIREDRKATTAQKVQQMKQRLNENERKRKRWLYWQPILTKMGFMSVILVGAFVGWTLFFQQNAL

`N=c1n(Cc2ccccc2)c2ccccc2n1CC(O)COc1ccccc1Cl` (stereo not shown) has an IC50 of 4.95 µM (Inward rectifier potassium channel 4; ion flux, inhibitor, fluorescence).
With `Nc1nc2c(ncn2[C@@H]2O[C@H](COP(=O)(O)OP(=O)(O)O)[C@@H](O)[C@H]2O)c(=O)[nH]1` the IC50 was 15 ± 6 µM (Tubulin alpha-1B chain/TUBB2B; assembly, inhibitor, turbidimetry; pH 6.9, 30 °C, bovine, no GTP, MAPs or Mg2+, together with: paclitaxel 30 µM).
The IC50 of `COc1cc(/C=N/NC(=O)c2nnn(Cc3nc4ccccc4[nH]3)c2C)ccc1O` is reported as 42 ± 2.1 µM (DNA; DNA binding, methyl green displacement).
With `Cc1ccc2nc(C3CCC3)n(-c3ccc4[nH]c(=O)sc4c3)c2n1` the IC50 was 2e-05 µM (GRIA1/CACNG8 (Homo sapiens, UniProt P42261+Q8WXS5); calcium influx, antagonist, FLIPR; HEK293 expressing GluA1o; together with: glutamate 100 µM).
The IC50 of `Cc1cn([C@H]2C[C@H](N=[N+]=[N-])[C@@H](CO[P@](=O)(O)O[P@](=O)(O)OP(=O)(O)O)O2)c(=O)[nH]c1=O` is reported as 0.008 µM (Gag-Pol polyprotein, reverse transcriptase (gag-pol, Human immunodeficiency virus 1, UniProt P03366); reverse transcriptase activity, inhibitor, CRISPR-Cas12a fluorescence; Human immunodeficiency virus 1, PBMC lysate; 30 min).
For `C/C=C1\C(=O)C[C@H]2[C@@H]3CCC4=CC(=O)CC[C@]4(C)[C@H]3CC[C@]12C`, the IC50 was 11.9 µM (KCNK18 (Homo sapiens, UniProt Q7Z418); ion flux, inhibitor).
`COc1cc(C2C(C#N)=C(N)Oc3c2c(=O)[nH]c2ccccc32)ccc1OCc1cn(Cc2ccc(C)cc2)nn1` (stereo not shown) has an IC50 of 9.09 µM and 9.9 µM (MAL12; enzyme activity).
For `Cc1cccc(Cc2nn(C(C)(C)C)c3ncnc(N)c23)c1`, the IC50 was 2.6 µM (EPHB1 (Homo sapiens, UniProt P54762, G703C); phosphorylation in cells, inhibitor, western blot).
`[Na+].[Na+].[Na+].[O]=[V]([O-])([O-])[O-]` gave an IC50 of 2.4 µM (PTPN2 (Homo sapiens, UniProt P17706); enzyme activity, inhibitor, absorbance).
With `CCCS(=O)(=O)Nc1ccc(F)c(C(=O)c2c[nH]c3ncc(-c4ccc(Cl)cc4)cc23)c1F` the IC50 was 0.0017 µM (SLCO1B1; substrate uptake, inhibitor; HEK293 overexpressing SLCO1B1; 3 min, 100% human plasma, together with: [3H]-estradiol-17β-glucuronide 5 µM).
With `N=c1n(Cc2ccc(Cl)cc2)c2ccccc2n1CC(O)COc1ccc(Cl)cc1` (stereo not shown) the IC50 was 5.7 µM (Inward rectifier potassium channel 4; ion flux, inhibitor, fluorescence).
For `Tannic acid`, the IC50 was 0.13 ± 0.01 µM (Genome polyprotein, NS2B-NS3 protease (Dengue virus type 4, UniProt P09866); inhibitor, fluorogenic substrate Bz-Nle-Lys-Arg-Arg-AMC; DENV4).
For `S=C(Nc1cccc(Cl)c1)N1CCc2ccccc2C1`, the IC50 was 31.2 µM (Urease; enzyme activity, inhibitor, absorbance).
With `O=[N+]([O-])c1ccc(N2CCN(S(=O)(=O)c3ccc(F)cc3)CC2)cc1F` the IC50 was 2.43 µM (Kir1 channel protein; ion flux, inhibitor, fluorescence).
`C[C@@H]1O[C@@H](Oc2c(-c3ccc(O)c(O)c3)oc3cc(O)cc(O)c3c2=O)[C@H](O)[C@H](O)[C@H]1O` has an IC50 of 255 ± 3.31 µM (α-glucosidase (Saccharomyces cerevisiae); inhibitor; together with: pNPG).
With `Cc1ccc(OCC(O)Cn2c(=N)n(C)c3ccccc32)cc1` (stereo not shown) the IC50 was 16.5 µM (Inward rectifier potassium channel 4; ion flux, inhibitor, fluorescence).
For `Cc1nnc(CNc2cc(N3CCN(S(=O)(=O)c4ccc(F)cc4)CC3)ccc2[N+](=O)[O-])o1`, the IC50 was 0.441 µM (Kir1 channel protein; ion flux, inhibitor, fluorescence).
`N#Cc1ccc(C(Cc2ccc(OS(N)(=O)=O)c(Br)c2)n2cncn2)cc1` (racemic) has an IC50 of 0.593 ± 0.006 µM (Steryl-sulfatase (STS, Homo sapiens, UniProt P08842); enzyme activity, inhibitor).
`O=C(O)CCNC(=S)NCCCC[C@H](NS(=O)(=O)c1cccc(F)c1)C(=O)N[C@@H](Cc1c[nH]c2ccccc12)C(=O)NC1CCC1` has an IC50 of 0.047 ± 0.002 µM (SIRT5 (Homo sapiens, UniProt Q9NXA8); inhibitor; 30 min, room temperature, together with: glutaryl peptide substrate, 250 µM NAD+).
`Nc1ncnc2c1ncn2[C@@H]1O[C@H](COP(=O)(O)OP(=O)(O)OC[C@H]2OC(O)[C@H](O)[C@@H]2O)[C@@H](O)[C@H]1O` (stereo partly shown) has an IC50 of 129 µM (SARM1 (Homo sapiens, UniProt Q6SZW1); enzyme activity, inhibitor, fluorescence; with preincubation).
For `C#CCOc1cccc2oc(-c3ccccc3)cc(=O)c12`, the IC50 was over 10 µM (Cytochrome P450 2B1 (Cyp2b1, Rattus norvegicus, UniProt P00176); enzyme activity, inhibitor; supersomes; together with: pentoxyresorufin 5 µM).
`COC(=O)C1=C(C)NC(C)=C([N+](=O)[O-])[C@H]1c1ccccc1C(F)(F)F` gave an IC50 of 10.8 ± 1.9 µM (CACNA1H (Homo sapiens, UniProt O95180); calcium current, blocker, automated patch clamp; holding potential -90 mV; together with: 60 s prepulse, -75 mV).
The IC50 of `O=C(NC1CC1)n1ccc2c3c(=O)cc(-c4ccccc4)[nH]c3ccc21` is reported as 2.2 to 2.4 µM (Tubulin alpha-1B chain/TUBB2B; tubulin polymerization, turbidimetry; 20 min).
With `COC(=O)C1=C(C)NC(C)=C(C(=O)OCCN(C)Cc2ccccc2)C1c1cccc([N+](=O)[O-])c1` (stereo not shown) the IC50 was 1.4 ± 1.1 µM (ABCC1 (Homo sapiens, UniProt P33527); efflux, inhibitor; SupT1-Vin overexpressing ABCC1; together with: SYTO 13 100 nM).
`COc1ccccc1OCC(O)Cn1c(=N)n(Cc2ccccc2)c2ccccc21` (stereo not shown) gave an IC50 of 3.6 µM (Inward rectifier potassium channel 4; ion flux, inhibitor, fluorescence).
`N#CC1=C(N)Oc2c(c(=O)[nH]c3ccccc23)C1c1ccc(OCc2cn(Cc3ccc(F)cc3)nn2)cc1` (stereo not shown) has an IC50 of 12.06 ± 0.03 µM (MAL12; enzyme activity).
`COc1cc(/C=N/NC(=O)COc2cc(C)cc3oc(=O)cc(C)c23)ccc1OCc1cn(Cc2ccc(C)cc2)nn1` gave an IC50 of 8.12 ± 1.12 µM (Urease; enzyme activity, inhibitor).
With `N=C(N)SCCc1ccc(OCc2ccc([N+](=O)[O-])cc2)cc1` the IC50 was 2.9 µM (Sodium/calcium exchanger 1, isoform NCX1.3 (SLC8A1, Homo sapiens, UniProt P32418); forward-mode exchange current, inhibitor, inside-out patch clamp; tsA201; β-cell splice variant).
With `O=C(NNC(=O)c1ccc(CNS(=O)(=O)c2ccc(F)c(Cl)c2)cc1)c1ccccc1` the IC50 was 1.4 µM (Glutamate NMDA receptor; Grin1/Grin2a (Grin1/Grin2a, Rattus norvegicus, UniProt P35439+Q00959, G786D); ion current, two-electrode voltage clamp; oocytes).
With `C[C@@H]1O[C@@H](O[C@@H]2[C@@H](O)[C@H](OCCc3ccc(O)c(O)c3)O[C@H](CO)[C@H]2OC(=O)/C=C/c2ccc(O)c(O)c2)[C@H](O)[C@H](O)[C@H]1O` the IC50 was 324 µM (tyrosinase (Agaricus bisporus); enzyme activity; 30 min, pH 6.8, 37 °C, together with: L-DOPA).
With `CC(O)c1cc(C(=O)N[C@@H](C)Cn2ccc(-c3ccc(C#N)c(Cl)c3)n2)[nH]n1` (stereo partly shown) the IC50 was 3.8 µM (SLCO1B1; transporter uptake, inhibitor; with preincubation).
The IC50 of `[Co+2]` is reported as about 15 µM (Trpv1 (Rattus norvegicus, UniProt O35433); calcium uptake; HaCaT expressing rat TRPV1; approximate).
`O=C(CCCCCCC(=O)Nc1ccc([C@H]2O[C@@H](CSc3nc(-c4ccccc4)c(-c4ccccc4)o3)C[C@@H](c3ccc(CO)cc3)O2)cc1)NO` has an IC50 of 26 µM (HDAC (Lucilia cuprina egg nuclear extract); enzyme activity, inhibitor, fluorometric).
The IC50 of `NC/C(=C\F)COc1cccc(Cn2c(=S)[nH]c(=O)c3[nH]cnc32)c1` is reported as 0.25 µM (Myeloperoxidase (MPO, Homo sapiens, UniProt P05164); HOCl production; 6 min, enzyme 10 nM, together with: H2O2 50 µM, taurine 5 mM).
For `N=c1n(Cc2ccc(Cl)cc2)c2ccccc2n1CC(O)COc1ccccc1` (stereo not shown), the IC50 was 7.2 µM (Inward rectifier potassium channel 4; ion flux, inhibitor, fluorescence).
For `CC(C)(c1ccc(O)cc1)c1ccc(OCc2cccc(COc3ccc(C(=N)N)cc3)c2)cc1`, the IC50 was 0.0064 µM (Leukotriene B4 receptor 1 (Cavia porcellus, UniProt H0VYV8, H83G/K88G/S309A); radioligand binding, competition binding; 12 h, 4 °C, together with: 0.5 nM [3H]-LTB4).
For `N=c1n(Cc2ccccc2)c2ccccc2n1CC(O)COc1ccc(OCc2ccccc2)cc1` (stereo not shown), the IC50 was 2.33 µM (Inward rectifier potassium channel 4; ion flux, inhibitor, fluorescence).
The IC50 of `Cl.Cl.Cl.Cl.Cl.Cl.N.N.N.N.N.N.N.N.N.N.N.N.N.N.[O-2].[O-2].[Ru+3].[Ru+3].[Ru+4]` is reported as over 100 µM (Kcnk2 (Mus musculus, UniProt P97438); ion current, inhibitor, two-electrode voltage clamp; oocytes).
`NC(N)=S` has an IC50 of 22.4 µM (Urease; enzyme activity, inhibitor).
`COc1cc2oc(-c3ccc(O)cc3O)c(CC=C(C)C)c(=O)c2c(O)c1/C=C/C(C)C` has an IC50 of 0.49 µM (Sialidase A (nanA, Streptococcus pneumoniae, UniProt P62575); neuraminidase activity, inhibitor, chemiluminescence; Streptococcus pneumoniae, total protein of strains).
`C[C@H]1O[C@H](O[C@H]2[C@H](O)[C@@H](O)[C@@H](O[C@H]3[C@H](O)[C@@H](O)C(O)O[C@@H]3CO)O[C@@H]2CO)[C@H](O)[C@@H](O)[C@@H]1N[C@H]1C=C(CO)[C@@H](O)[C@H](O)[C@H]1O` (stereo partly shown) has an IC50 of 162 ± 6.34 µg/mL (maltase, rat intestine; enzyme activity, inhibitor; 20 min, pH 6.8, 37 °C, together with: pNPG 0.50 mM).
`Cc1ccc(Cn2cc(COc3ccc(/C=N/NC(=O)COc4cc(C)cc5oc(=O)cc(C)c45)cc3)nn2)cc1` has an IC50 of 3.58 ± 0.91 µM (Urease; enzyme activity, inhibitor).
For `COc1ccc(NC(=S)N2CCc3ccccc3C2)cc1`, the IC50 was 15.5 µM (Urease; enzyme activity, inhibitor, absorbance).

Some of these lines once more:
`NC(N)=S` has an IC50 of 22.4 µM (Urease; enzyme activity, inhibitor).
The IC50 of `NC/C(=C\F)COc1cccc(Cn2c(=S)[nH]c(=O)c3[nH]cnc32)c1` is reported as 0.25 µM (Myeloperoxidase (MPO, Homo sapiens, UniProt P05164); HOCl production; 6 min, enzyme 10 nM, together with: H2O2 50 µM, taurine 5 mM).
With `N=C(N)SCCc1ccc(OCc2ccc([N+](=O)[O-])cc2)cc1` the IC50 was 2.9 µM (Sodium/calcium exchanger 1, isoform NCX1.3 (SLC8A1, Homo sapiens, UniProt P32418); forward-mode exchange current, inhibitor, inside-out patch clamp; tsA201; β-cell splice variant).
